Results of several laboratories.
Each numbered part is a random draw from the data of one study; scales do not carry over between parts.

Block 1 — method: RNA Bind-n-Seq; form: RNA; medium: in vitro; concentration: 200 nM; notes: whole 134-nt RNA, ends assumed; with: 150 mM KCl; baseline: input library; direction: higher = stronger binding; quantity: log2 enrichment
Target: Fragile X messenger ribonucleoprotein 1, C-terminal low-complexity region (Fmr1, Mus musculus, UniProt P35922)
All sequences stand within: GGGAGUUCUACAGUCCGACGAUC … UGGAAUUCUCGGGUGUCAAGG
AGUCCUGUGCUACACAUCGUAUGUACCGAAUCGGGGUUUGGGGAGGGGAAAAAGGGGAAAGUAUUAUGUUACGCCGUUCGGAUCUGCACU: 0.44
AAGUCCUGUGCUACACAUCGUAUGUACCGAAUCGGUUUUUGGAAAGGAAAAAAAGGAAAGUAUUAUGUUACGCCGUUCGGAUCUGCACUU: -0.9
ACGAUGCAGGUGGGCAUCUUUGGGAAGUGGGGCAAGGGGGGGAUAGGGAGGGGGGUAACACUUUGGGAACAGGUGGUCCCAGGUCGUUUC: 1.12
UGGGAGGUGGAUUUUGUUUAUUUUUUUAGCUUAUUUCCAGGGGUGGGAAUUUUUUUUUAAUAUGUGUCAUGAAUAAAGUUGUUUUUGAAA: 0.181
UCAAGUCCUGUGCUACACAUCGUAUGUACCGAAUCGGGUUUGGUUUGGGGUUUGGAAAGUAUUAUGUUACGCCGUUCGGAUCUGCACUUC: -0.314
UGCUUGUUCUGGAGUGAUCUUCUGACUGGAAAAGAACUAUGUCAUGGAUCAAGGAAGGAGAGCUGUCACUUUGGGAGCGGUUCUGUGCCA: 0.618
UCCUCAAGUCCUGUGCUACACAUCGUAUGUACCGAAUCGGAAAGGUGGUGGAAAGUAUUAUGUUACGCCGUUCGGAUCUGCACUUCCAGC: -0.302
GCAGGAAGUAAAAACAAAUGGAAAUGCUUCGGAUAGUGGCAGGGGUGGGGGUUGCUAAGGAAAGGGUGGGAUGGGAGUGGGUAAAGAGAU: 0.433
UCAAGUCCUGUGCUACACAUCGUAUGUACCGAAUCGGAGGUUUUUUUGGAAAGGAAAGUAUUAUGUUACGCCGUUCGGAUCUGCACUUCC: -0.838

Block 2 — method: RNA Bind-n-Seq; form: RNA; medium: in vitro; concentration: 100 nM; baseline: input RNA pool; direction: higher = stronger binding; quantity: bound/input enrichment
Target: RING finger protein unkempt homolog, zinc fingers 1-6, SBP tag (UNK, Homo sapiens, UniProt Q9C0B0, residues 30-357)
Sequence of UniProt Q9C0B0 (30-357, looked up): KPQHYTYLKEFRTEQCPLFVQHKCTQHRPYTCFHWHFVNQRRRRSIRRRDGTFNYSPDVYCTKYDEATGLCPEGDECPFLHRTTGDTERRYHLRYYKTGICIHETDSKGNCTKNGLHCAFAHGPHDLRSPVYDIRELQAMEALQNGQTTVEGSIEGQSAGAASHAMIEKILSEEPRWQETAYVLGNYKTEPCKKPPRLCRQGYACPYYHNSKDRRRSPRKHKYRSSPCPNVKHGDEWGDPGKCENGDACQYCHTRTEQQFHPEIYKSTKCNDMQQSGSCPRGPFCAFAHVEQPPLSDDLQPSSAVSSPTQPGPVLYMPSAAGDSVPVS
Notes: RNA with constant flanks, vertebrate orthologous sites, ends assumed
All sequences stand within: GGGAGUUCUACAGUCCGACGAUC … CAACAGAGGAUUGAGCAUCA
GAAUUGAACAAAAGCGUUUCCACUGGGUUUUGCUUGUAAGAAAAAACGUACCCGAGCACAUAGAGCUUUUUAAUAGCGCUAACCAAUGCCUUUUUAGAUGUAUUUUUGAUGUAUAUAUCU: 0.751 ratio
GGAAAGCUACAGACCAGACUCUGAAAGUAGGAGCACAGGGUCCUGGUUGUCAUCAUCUUUGAGGAACAGAUGUACACCACUCUUCUCCAGAAGACGGAGAGAAGGAAGAGAUGAGUCUGC: 0.41 ratio
UACCUUUUGUAGGCCAAAUACCUUCCUUCCACUGCUCUGCCAACUGGAAGCACAGAAAACUAGAAUUUCAUUUAUUUUGUUUAAAAAAAAUUGAUUUCUUGUAACAUCCAAUAGGAAUGC: 0.648 ratio
AGGGAGAAGAGCUCACAAACUCAAAGGAGAACUAGGAAAGAAUUUCUAAUAGUUAAAAGCUAGGAAAGAUUAGGACAACUUUACAAAUGAGCAAUUAAAAAAAAAAAGGAUAUGGAACCU: 0.816 ratio
CACAUCGGGUGAUAUUUGGCCUGGCCUUUCAGCUUAUGAUAAUAGUCCCAGAUCACCUCAUAGUCCUUCACCGAUUGCUACACCACCUAGUCAGAGUUCAUCUUGCUCUGAUGCCCCCAU: 0.707 ratio
UCCCGCCUGUGGCAGCAUCCUUGGGCCAGGGCCACAGCCGAUAUCUUAUACGACCUGUGUUUAGGACAUUUUUUAAAUCAUUGUGUCUAAGCAUCUCAGAGUCAAGUGUGCUUCUUUGCA: 0.31 ratio
AUGCAUUUUGCCACUUGGACGUGGUCUGCACUGAAAGCUGCUGGCCCCUCCACAACAAUACAUACAAUGUUUGUCUUUUUUAAAGAUGUUCAAAAUGAAUUGAAUUUACUAAACAUGUAA: 0.125 ratio
ACACUUAUAUUGUGGCAUAUAGUCAACAUGGAAGUAGACCAGCUCUGCUGAUUUGAAAUUUAGAUUUUUUUAAUUAUGUACUGGGGACAGGUUUUUGUCGCUUUACAUUGCUUCCUAGUU: 4.3 ratio

Block 3 — organism: Saccharomyces cerevisiae; read-out: binding; method: competitive growth deep sequencing; form: peptide; strain: cyclin D3-Cln2 fusion strain; concentration: concentration not given; notes: peptide tiling library; direction: direction not given; quantity: growth enrichment score
GTPKRCLDLSNLSSGE: 2.31
PKNAKRNLSSEFAN: -0.443
TLPYDLACTGGDFVLF: -0.276
TQERKQIHCLSEDELS: 0.265
IFNKPECGRVQRAIFQ: -0.0582
IPMIAKNLMCELDE: 0.698
PKRAKRKLYTSEISSP: -0.259
MNQELLSVGSKRRRTG: -1.42

Block 4 — method: universal PBM; form: double-stranded DNA, one strand shown; medium: in vitro; concentration: 600 nM; direction: higher = stronger binding; quantity: E-score
Target: Sal-like protein 4, full length isoform A (SALL4, Homo sapiens, UniProt Q9UJQ4, residues 1-1053)
Sequence of UniProt Q9UJQ4 (whole entry, looked up): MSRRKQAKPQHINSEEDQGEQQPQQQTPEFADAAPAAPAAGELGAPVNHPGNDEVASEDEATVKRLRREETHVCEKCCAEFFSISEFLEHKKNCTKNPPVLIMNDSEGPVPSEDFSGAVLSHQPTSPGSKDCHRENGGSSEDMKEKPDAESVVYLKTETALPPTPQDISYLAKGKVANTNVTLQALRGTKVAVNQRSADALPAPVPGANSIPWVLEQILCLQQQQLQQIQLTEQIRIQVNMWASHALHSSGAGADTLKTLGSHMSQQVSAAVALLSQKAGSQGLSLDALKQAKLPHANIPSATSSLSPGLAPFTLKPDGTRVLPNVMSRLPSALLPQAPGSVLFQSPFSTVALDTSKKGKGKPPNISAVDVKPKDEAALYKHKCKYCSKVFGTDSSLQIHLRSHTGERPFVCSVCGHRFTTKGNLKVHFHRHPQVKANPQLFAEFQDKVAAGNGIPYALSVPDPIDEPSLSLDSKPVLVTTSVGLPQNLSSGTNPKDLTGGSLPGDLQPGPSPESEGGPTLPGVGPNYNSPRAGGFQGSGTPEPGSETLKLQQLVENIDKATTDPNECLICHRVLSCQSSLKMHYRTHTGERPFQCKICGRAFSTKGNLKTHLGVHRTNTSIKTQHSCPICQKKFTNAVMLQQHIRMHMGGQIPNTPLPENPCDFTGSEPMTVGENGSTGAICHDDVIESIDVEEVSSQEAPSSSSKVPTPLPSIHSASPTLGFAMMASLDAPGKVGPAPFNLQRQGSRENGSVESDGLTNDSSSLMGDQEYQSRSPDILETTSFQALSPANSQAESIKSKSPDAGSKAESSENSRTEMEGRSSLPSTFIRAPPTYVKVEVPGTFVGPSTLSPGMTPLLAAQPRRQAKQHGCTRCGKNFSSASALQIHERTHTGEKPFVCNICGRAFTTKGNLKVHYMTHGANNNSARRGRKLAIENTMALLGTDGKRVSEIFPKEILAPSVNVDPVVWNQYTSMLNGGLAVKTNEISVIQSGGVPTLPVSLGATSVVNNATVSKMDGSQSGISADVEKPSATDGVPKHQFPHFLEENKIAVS
Notes: 8-mer, flanks averaged, mean of replicates
CGTCTAAG: -0.137
GGCGCCAC: -0.42
CCCGCTGC: -0.242
GCATCAAC: -0.0404
CCAGTGCG: -0.304
GAACTCGC: -0.125
AAGGCCAG: -0.0897
CGTAGATC: -0.0197
CAAGTACC: -0.0663
CTAAAGAG: -0.0872
CGTCACGC: -0.174
AACGGAGG: -0.226
ACCGGCCC: -0.441
ACGAACAT: 0.173
GAAGACCC: -0.172
ACCATGTG: -0.0226
AGTTTCCG: -0.125
AGATCCGG: -0.131
CTTCTTAA: 0.181
GAACTTAC: -0.038
GACCCAAA: -0.0253
CAGCGAAA: -0.0979
CGTCGGAC: -0.262
CGTGAAGA: -0.0758
GATCAGAC: -0.0682

Block 5 — method: RNA Bind-n-Seq; form: RNA; medium: in vitro; concentration: 365 nM; baseline: no-protein control; direction: higher = stronger binding; quantity: RBNS enrichment (R)
Target: RNA binding protein fox-1 homolog 2, RRM domain, GST-SBP tag (RBFOX2, Homo sapiens, UniProt O43251-10, residues 100-194)
Notes: natural RNA segment, single round, ends assumed
All sequences stand within: GGGAGUUCUACAGUCCGACGAUC … UGGAAUUCUCGGGUGCCAA
Residues (chain): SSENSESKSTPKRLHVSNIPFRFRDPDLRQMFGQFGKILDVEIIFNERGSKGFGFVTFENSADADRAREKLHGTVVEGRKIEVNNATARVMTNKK
GCAUUGUGAACAACAAGCUCUUAGUGGUGUAUUUACCUGUUAAAACUUAAAAGCAGUGUUAGUGAGUUAGGCAGAGAGAUGAAAGUAAUACAGUCAGUAAGUUUCACUGC: 0.467
UCUCCCCUCAUACACAAAAGUACAAUAUGAAGCCUUCAUUUAAUCUCUGCAGUUCAUCUCAUUUCAAAUGUUUAUGGAAGAAGCACUUCAUUGAAAGUAGUGCUGUAAAU: 0.54
GUACAUGCUGAACUCCAAAUUCUUCCAUAUCAACUUCAAGCCCCAAGCCUCCAAUGUAUUACCUACCAUGCGCAUGAAUAAUUUUCUUCCAUGGCUUUUACACUGUCAAC: 0.724
UCCUUUUGCUUCCACCACCACUAGCUUCUUUGGAAUCUUGGGGUGGGGGUCAUCUUUGGGGAUUAUGGCUGCCACCCGGGAUUUGAGUGUAGGGAGUGUGGGAGCAGCCU: 0.553
CCUUCAGGUCUGGGGCCAGGAGUGGGACCCACCAUUUGUGGGGAAAGUAGCAUUCCUCCACCUCAGGCCUUGGGUAGAUUUGGCAAAAGAACAGGAGCAGCAUAGGCUGU: 0.449
UUAGAACUACAUUCUUUACCCCUUGUUUUAAUUUGAACCCCACCAUAUGGAUUUUUUUCCUUAAGAAAAUCUCCUUUUAGGAGAUCAUGGUGUCACAGUGUUUGGUUCUU: 0.301
UGUUCACACUGGGGCCAGGAUUUUCAUACUAAAACGUCACUGACAAUGGGGCUACUUUUCUCCUGAAUAGCUCCUCUGGGCUUGUUGCAGUUCUAGUUUUCCCAGUAGUU: 0.492
CAGCCAUGAAGUGUCACCAGUAUCUACUACUGUGAAGUCAGCUGUGCUGUUUUCCAUUCGCUUCCACGGCUUCUGCCUCCUGCCAUAAAACCAGCGAGUGUCGUGGUGCA: 0.323
